Measurements pooled from the literature.
Each numbered part is a random draw from the data of one study; scales do not carry over between parts.
Sequence of UniProt Q13163 (whole entry, looked up): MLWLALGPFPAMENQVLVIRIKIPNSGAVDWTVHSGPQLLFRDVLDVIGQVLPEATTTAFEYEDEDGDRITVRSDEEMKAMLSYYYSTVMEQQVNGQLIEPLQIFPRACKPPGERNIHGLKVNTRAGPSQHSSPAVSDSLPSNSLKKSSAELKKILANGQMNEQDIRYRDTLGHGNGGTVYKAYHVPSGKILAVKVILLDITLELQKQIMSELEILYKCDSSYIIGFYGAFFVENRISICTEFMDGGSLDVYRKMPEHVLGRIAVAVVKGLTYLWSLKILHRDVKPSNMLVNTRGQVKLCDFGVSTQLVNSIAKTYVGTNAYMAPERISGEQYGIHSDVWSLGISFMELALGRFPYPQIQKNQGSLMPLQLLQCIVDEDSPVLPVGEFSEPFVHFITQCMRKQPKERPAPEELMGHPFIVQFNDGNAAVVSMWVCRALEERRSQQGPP
Sequence of UniProt O43283 (whole entry, looked up): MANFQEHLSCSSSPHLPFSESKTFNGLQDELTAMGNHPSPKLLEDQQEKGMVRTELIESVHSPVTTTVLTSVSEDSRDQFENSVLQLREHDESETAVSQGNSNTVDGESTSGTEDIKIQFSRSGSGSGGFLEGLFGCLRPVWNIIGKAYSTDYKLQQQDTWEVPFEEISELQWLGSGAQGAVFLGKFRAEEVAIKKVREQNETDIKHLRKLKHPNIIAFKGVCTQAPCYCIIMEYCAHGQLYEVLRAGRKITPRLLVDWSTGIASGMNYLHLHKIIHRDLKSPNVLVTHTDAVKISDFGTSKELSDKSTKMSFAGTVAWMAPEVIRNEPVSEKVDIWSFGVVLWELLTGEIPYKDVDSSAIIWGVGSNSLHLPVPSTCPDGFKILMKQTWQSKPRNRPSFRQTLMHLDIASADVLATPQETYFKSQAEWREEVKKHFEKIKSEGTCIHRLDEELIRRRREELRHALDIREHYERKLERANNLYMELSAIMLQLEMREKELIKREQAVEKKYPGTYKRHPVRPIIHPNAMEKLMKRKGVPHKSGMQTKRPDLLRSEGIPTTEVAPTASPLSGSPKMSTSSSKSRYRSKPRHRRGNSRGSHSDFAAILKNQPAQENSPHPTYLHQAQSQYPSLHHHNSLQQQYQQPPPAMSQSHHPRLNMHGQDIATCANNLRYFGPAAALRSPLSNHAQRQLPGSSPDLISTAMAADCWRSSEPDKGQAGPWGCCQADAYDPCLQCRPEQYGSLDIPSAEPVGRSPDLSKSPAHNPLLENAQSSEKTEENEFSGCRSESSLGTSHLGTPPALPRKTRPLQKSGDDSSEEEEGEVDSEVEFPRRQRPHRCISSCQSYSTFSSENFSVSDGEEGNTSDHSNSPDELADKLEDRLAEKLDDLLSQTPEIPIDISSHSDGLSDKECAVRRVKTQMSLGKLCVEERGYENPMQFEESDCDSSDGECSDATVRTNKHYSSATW
Sequence of UniProt P15735 (whole entry, looked up): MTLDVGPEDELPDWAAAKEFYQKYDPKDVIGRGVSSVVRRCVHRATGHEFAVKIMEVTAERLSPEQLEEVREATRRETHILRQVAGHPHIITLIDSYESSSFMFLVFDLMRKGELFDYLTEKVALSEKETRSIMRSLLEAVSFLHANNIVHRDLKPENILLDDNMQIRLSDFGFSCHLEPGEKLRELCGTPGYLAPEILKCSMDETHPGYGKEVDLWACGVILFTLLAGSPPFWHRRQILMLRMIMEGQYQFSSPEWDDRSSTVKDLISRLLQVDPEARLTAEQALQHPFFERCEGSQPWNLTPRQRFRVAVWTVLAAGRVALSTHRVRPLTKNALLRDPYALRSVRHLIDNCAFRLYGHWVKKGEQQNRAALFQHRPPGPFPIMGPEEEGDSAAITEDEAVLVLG
Sequence of UniProt Q9BZL6 (whole entry, looked up): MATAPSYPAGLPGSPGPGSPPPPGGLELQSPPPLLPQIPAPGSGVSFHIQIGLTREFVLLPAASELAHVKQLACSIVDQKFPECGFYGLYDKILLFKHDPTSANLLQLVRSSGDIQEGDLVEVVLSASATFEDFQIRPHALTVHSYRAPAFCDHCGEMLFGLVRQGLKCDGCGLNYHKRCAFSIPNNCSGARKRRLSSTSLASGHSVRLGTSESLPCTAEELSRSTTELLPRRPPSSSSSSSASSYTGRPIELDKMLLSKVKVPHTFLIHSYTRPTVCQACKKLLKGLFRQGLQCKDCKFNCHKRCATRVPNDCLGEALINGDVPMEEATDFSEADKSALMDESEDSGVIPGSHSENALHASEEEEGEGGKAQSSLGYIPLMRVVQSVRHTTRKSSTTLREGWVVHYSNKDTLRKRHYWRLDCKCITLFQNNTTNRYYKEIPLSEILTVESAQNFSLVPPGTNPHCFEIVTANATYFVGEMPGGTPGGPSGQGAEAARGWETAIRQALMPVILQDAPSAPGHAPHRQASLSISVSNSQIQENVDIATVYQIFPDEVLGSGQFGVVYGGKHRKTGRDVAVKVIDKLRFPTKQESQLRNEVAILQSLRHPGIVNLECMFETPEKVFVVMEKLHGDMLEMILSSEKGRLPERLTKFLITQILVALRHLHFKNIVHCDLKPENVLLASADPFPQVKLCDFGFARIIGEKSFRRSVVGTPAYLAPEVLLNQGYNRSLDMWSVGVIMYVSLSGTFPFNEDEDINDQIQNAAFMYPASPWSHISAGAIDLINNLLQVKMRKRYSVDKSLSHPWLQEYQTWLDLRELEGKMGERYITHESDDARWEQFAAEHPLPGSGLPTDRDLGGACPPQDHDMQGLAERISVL
Sequence of UniProt P11802 (whole entry, looked up): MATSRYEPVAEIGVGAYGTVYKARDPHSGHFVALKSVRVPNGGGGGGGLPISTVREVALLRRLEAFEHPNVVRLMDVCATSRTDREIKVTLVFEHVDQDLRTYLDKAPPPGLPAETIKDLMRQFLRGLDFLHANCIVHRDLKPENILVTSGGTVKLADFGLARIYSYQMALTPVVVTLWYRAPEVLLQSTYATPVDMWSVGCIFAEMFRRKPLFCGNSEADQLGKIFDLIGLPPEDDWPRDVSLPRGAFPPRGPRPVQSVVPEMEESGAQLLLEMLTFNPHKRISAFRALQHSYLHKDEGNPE
Sequence of UniProt P54760 (whole entry, looked up): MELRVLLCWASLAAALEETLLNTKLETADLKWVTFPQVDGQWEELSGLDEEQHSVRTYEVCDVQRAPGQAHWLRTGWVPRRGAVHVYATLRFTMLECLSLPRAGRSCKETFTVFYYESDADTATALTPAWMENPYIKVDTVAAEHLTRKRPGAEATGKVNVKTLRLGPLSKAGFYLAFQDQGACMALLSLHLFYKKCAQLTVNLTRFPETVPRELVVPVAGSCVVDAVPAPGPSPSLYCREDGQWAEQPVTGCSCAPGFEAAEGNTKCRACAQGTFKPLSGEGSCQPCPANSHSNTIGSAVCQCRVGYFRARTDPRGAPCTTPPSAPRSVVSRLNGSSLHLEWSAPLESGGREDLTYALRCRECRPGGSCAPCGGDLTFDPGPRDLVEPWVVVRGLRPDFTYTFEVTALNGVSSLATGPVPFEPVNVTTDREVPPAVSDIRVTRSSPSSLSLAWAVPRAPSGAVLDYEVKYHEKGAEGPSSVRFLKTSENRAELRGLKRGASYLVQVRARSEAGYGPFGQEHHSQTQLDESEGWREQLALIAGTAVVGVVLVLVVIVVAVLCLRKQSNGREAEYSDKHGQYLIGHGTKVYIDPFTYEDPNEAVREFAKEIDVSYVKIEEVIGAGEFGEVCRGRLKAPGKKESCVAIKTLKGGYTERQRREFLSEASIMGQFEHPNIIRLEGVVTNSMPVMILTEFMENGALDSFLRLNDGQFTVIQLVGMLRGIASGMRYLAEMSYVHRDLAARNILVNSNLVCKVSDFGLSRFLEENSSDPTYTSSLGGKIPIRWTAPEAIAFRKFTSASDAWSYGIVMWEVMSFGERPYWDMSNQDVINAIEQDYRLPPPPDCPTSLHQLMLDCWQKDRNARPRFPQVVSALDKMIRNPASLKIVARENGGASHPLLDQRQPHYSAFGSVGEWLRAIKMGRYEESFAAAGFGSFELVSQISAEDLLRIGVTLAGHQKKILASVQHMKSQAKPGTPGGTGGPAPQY
Sequence of UniProt Q9P1W9 (whole entry, looked up): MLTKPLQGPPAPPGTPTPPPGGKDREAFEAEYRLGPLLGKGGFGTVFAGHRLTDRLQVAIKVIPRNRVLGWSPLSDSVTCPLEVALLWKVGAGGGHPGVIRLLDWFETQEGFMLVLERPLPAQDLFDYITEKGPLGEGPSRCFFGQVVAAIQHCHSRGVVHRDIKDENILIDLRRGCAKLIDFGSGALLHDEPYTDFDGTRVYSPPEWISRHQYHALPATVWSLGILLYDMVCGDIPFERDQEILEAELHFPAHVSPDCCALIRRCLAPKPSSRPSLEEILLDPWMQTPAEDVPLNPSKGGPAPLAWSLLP
Sequence of UniProt O00506 (whole entry, looked up): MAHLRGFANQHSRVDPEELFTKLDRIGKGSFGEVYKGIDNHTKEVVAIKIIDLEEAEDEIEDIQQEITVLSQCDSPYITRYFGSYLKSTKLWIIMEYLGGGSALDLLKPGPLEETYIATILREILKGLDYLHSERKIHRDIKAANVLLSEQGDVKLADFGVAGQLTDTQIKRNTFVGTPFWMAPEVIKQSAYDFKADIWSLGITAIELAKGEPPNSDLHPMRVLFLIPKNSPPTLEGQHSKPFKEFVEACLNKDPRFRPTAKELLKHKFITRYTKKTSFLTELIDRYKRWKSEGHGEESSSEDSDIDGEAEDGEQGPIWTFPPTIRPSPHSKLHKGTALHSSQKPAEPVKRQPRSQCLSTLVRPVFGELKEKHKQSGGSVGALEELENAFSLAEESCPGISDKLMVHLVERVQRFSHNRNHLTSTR

Sample 1
Compound: O=C(NS(=O)(=O)c1ccc(NCC2CCOCC2)c([N+](=O)[O-])c1)c1ccc(N2CCN(Cc3ccc(C(F)(F)F)cc3-c3ccc(Cl)cc3)CC2)cc1Oc1cnc2[nH]ccc2c1
Read-out: cell-free assay
Technique: competition with immobilised ligand
Concentration: 1 µM
target | remaining binding [%]
Serine/threonine-protein kinase SIK3 (SIK3, Homo sapiens, UniProt Q9Y2K2) | 76
Dual specificity mitogen-activated protein kinase kinase 5 (MAP2K5, Homo sapiens, UniProt Q13163) | 75
Mitogen-activated protein kinase 12 (MAPK12, Homo sapiens, UniProt P53778) | 50
Tyrosine-protein kinase Fyn (FYN, Homo sapiens, UniProt P06241) | 100
Serine/threonine-protein kinase pim-2 (PIM2, Homo sapiens, UniProt Q9P1W9) | 73
Phosphatidylinositol 4,5-bisphosphate 3-kinase catalytic subunit alpha isoform (PIK3CA, Homo sapiens, UniProt P42336, C420R) | 81
Ephrin type-B receptor 4 (EPHB4, Homo sapiens, UniProt P54760) | 100
Phosphorylase b kinase gamma catalytic chain, liver/testis isoform (PHKG2, Homo sapiens, UniProt P15735) | 83
Tyrosine-protein kinase BTK (BTK, Homo sapiens, UniProt Q06187) | 100
Mitogen-activated protein kinase kinase kinase 13 (MAP3K13, Homo sapiens, UniProt O43283) | 91
Cyclin-dependent kinase 4, with cyclin D1 (CDK4, Homo sapiens, UniProt P11802) | 100
Dual specificity mitogen-activated protein kinase kinase 3 (MAP2K3, Homo sapiens, UniProt P46734) | 80
Ephrin type-A receptor 6 (EPHA6, Homo sapiens, UniProt Q9UF33) | 100
Serine/threonine-protein kinase D2 (PRKD2, Homo sapiens, UniProt Q9BZL6) | 100
Serine/threonine-protein kinase 25 (STK25, Homo sapiens, UniProt O00506) | 98
Serine/threonine-protein kinase pim-3 (PIM3, Homo sapiens, UniProt Q86V86) | 100

Sample 2
Target: Prothrombin, mature alpha-thrombin (F2, Homo sapiens, UniProt P00734)
Technique: aptamer microarray, sandwich
Form: DNA with 2'F-ANA
Sample: in vitro
Concentration: 200 nM
Setting: whole 15-mer aptamer, many near background
With: Cy3 exosite-II aptamer, 400 nM
Direction: higher = stronger binding
Strand: GGTTGGTGTGGTTGG
Modification | mean fluorescence intensity
2'F-ANA at 1 2 3 8 9 10 11 12 13 14 | 66.5 a.u.
2'F-ANA at 1 2 5 7 10 12 14 15 | 52.3 a.u.
2'F-ANA at 1 2 4 5 7 8 9 11 14 15 | 53.1 a.u.
2'F-ANA at 1 2 3 5 6 7 9 12 15 | 103 a.u.
2'F-ANA at 1 3 5 6 8 9 10 11 12 14 | 49.5 a.u.
2'F-ANA at 1 3 4 8 10 12 14 15 | 54.3 a.u.
2'F-ANA at 1 3 4 5 6 7 9 11 12 15 | 88.1 a.u.
2'F-ANA at 3 4 5 7 8 11 14 | 64.6 a.u.

Sample 3
Host: human
Sample: microsomes or S9
Concentration: 2 µM
Time: 0.5 h
Structure (SMILES) | remaining compound [%]
N#Cc1nccnc1NCCc1nc2c(s1)CCCC2 | 0.965
COc1cc(C2CC(=O)Oc3cc4c(c(OC)c32)C(=O)O[C@@H](C)CCCC(=O)CCC/C=C/4)cc2c1OCCO2 (stereo partly shown) | 10.8
Nc1c(Br)cc(Br)cc1C(=O)NC1CCCCC1 | 35.9
O=C(O)c1cccc(NC(=O)c2cc(S(=O)(=O)Nc3ccc(Br)cc3)ccc2Cl)c1 | 79.4
COc1ccc(-c2csc(/C(C#N)=C3\C=CC=CN3C)n2)cc1 | 7.58

Sample 4
Target: Histone acetyltransferase KAT6A, both winged helices, GST fusion (KAT6A, Homo sapiens, UniProt Q92794, residues 1-181)
Technique: protein binding microarray
Form: double-stranded DNA, one strand shown
Sample: in vitro
Concentration: not given
Setting: 8-mer, flanks averaged, mean of 2 arrays, mostly near background
Baseline: not given
Direction: higher = stronger binding
Target sequence (chain): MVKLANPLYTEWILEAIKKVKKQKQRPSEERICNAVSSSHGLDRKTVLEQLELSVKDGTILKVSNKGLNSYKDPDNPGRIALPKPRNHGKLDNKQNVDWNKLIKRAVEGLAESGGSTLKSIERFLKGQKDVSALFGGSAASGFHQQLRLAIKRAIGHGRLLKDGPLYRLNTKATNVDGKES
Strand | E-score
AAACGGCG | 0.243
AAATCTCG | 0.0234
ACCCATAT | -0.112
ACAAGCGC | 0.313
AGACAAAG | -0.085
TATCTTAA | -0.0763
AAATACGC | 0.185
GATAAGAA | 0.138

Excerpt of the above (sample 3):
Structure (SMILES) | remaining compound [%]
COc1cc(C2CC(=O)Oc3cc4c(c(OC)c32)C(=O)O[C@@H](C)CCCC(=O)CCC/C=C/4)cc2c1OCCO2 (stereo partly shown) | 10.8
Nc1c(Br)cc(Br)cc1C(=O)NC1CCCCC1 | 35.9
O=C(O)c1cccc(NC(=O)c2cc(S(=O)(=O)Nc3ccc(Br)cc3)ccc2Cl)c1 | 79.4
COc1ccc(-c2csc(/C(C#N)=C3\C=CC=CN3C)n2)cc1 | 7.58
